{"data": "Experimental data of several laboratories", "note": "Numbers after ± are the reported error."}
{"Structure (SMILES)": "O=C(O)CCC(NP(=O)(O)OCCC[C@@H](NC(=O)CC[C@H](NC(=O)CCCCCNC(=O)c1ccc([18F])cc1)C(=O)O)C(=O)O)C(=O)O (some centres unmarked)", "system": "mouse, CWR22Rv1 xenograft, blood", "setting": "dose not given, 4 h, blocking agent pre-dosed", "tissue uptake": "0.004 ± 0.001 %ID/g"}
{"Structure (SMILES)": "CCCC[C@H](NC(=O)CNC(=O)CNC(=O)CN1CCN(CC(=O)O)CCN(CC(=O)O)CCN(CC(=O)O)CC1)C(=O)N[C@H]1CC(=O)NCCCC[C@@H](C(N)=O)NC(=O)[C@H](Cc2c[nH]c3ccccc23)NC(=O)[C@H](CCCNC(=N)N)NC(=O)[C@@H](Cc2ccccc2)NC(=O)[C@H](Cc2c[nH]cn2)NC1=O [gallium-67 labelled]", "system": "female C57 mice, B16/F1 melanoma, tumor", "setting": "intravenous, 0.037 MBq, 4 h", "tissue uptake": "25.1 ± 4.13 %ID/g"}
{"Structure (SMILES)": "CN1C(=O)[C@@H](Cc2ccc(O)c(I)c2)NC(=O)CNC(=O)[C@H](Cc2ccc3ccccc3c2)NC(=O)[C@H](CCCNC(=N)N)NC(=O)[C@H]1CCCNC(=O)c1ccc(CNC(=O)CN2CCN(CC(=O)O)CCN(CC(=O)O)CCN(CC(=O)O)CC2)cc1 [lutetium-177 labelled]", "test": "measured: 177Lu radioactivity", "system": "female CB-17 SCID mice, Daudi xenograft, muscle", "setting": "intravenous, 0.16 nmol per mouse, 96 h", "tissue uptake": "0.04 ± 0.01 %ID/g"}
{"Structure (SMILES)": "CCCC[C@H](NC(=O)CN1CCC(NC(=O)CN2CCN(CC(=O)O)CCN(CC(=O)O)CCN(CC(=O)O)CC2)CC1)C(=O)N[C@H]1CC(=O)NCCCC[C@@H](C(N)=O)NC(=O)[C@H](Cc2c[nH]c3ccccc23)NC(=O)[C@H](CCCNC(=N)N)NC(=O)[C@@H](Cc2ccccc2)NC(=O)[C@H](Cc2c[nH]cn2)NC1=O [gallium-68 labelled]", "system": "male C57BL/6J mice, B16-F10 tumours, stomach", "setting": "intravenous, 1 h, blocking study, added: 100 µg non-radioactive Ga-peptide", "tissue uptake": "1.1 ± 0.6 %ID/g"}
{"Structure (SMILES)": "C[C@H](CN(C)Cc1ccccc1)NC(=O)c1ccc(-c2noc(C(F)(F)[18F])n2)cc1", "test": "PET imaging", "system": "female Sprague-Dawley rats, brain", "setting": "intravenous, 10 min", "tissue uptake": "2.4 ± 0.44 SUV"}
{"Structure (SMILES)": "CCCC[C@@H]1NC(=O)[C@@H](NC(=O)[C@H](CCC(=O)O)NC(=O)CNC(=O)CN2CCN(CC(=O)O)CCN(CC(=O)O)CCN(CC(=O)O)CC2)CCCCNC(=O)C[C@@H](C(N)=O)NC(=O)[C@H](C(C)C)NC(=O)[C@@H]2CCCN2C(=O)[C@H](CCCNC(=N)N)NC(=O)CNC(=O)[C@H](Cc2c[nH]c3ccccc23)NC(=O)[C@H](CCCNC(=N)N)NC(=O)[C@@H](Cc2ccccc2)NC(=O)[C@H](Cc2c[nH]cn2)NC(=O)[C@H](CCC(=O)O)NC1=O [gallium-67 labelled]", "system": "normal C57 mice, skin", "setting": "intravenous, 0.037 MBq/mouse, 2 h", "tissue uptake": "0.5 ± 0.09 %ID/g"}
{"Structure (SMILES)": "OCc1cn(Cc2ccc(-c3noc(-c4ccc(OCC[18F])c(C(F)(F)F)c4)n3)cc2)nn1", "system": "Lewis rat, female, liver", "setting": "intravenous, 1 h", "tissue uptake": "4.21 ± 0.21 %ID/g"}
{"Structure (SMILES)": "CC(C)[C@H](NC(=O)[C@@H]1CCCN1C(=O)[C@H](CCCNC(=N)N)NC(=O)[C@H](CS)NC(=O)[C@H](Cc1c[nH]c2ccccc12)NC(=O)[C@H](CCCNC(=N)N)NC(=O)[C@@H](Cc1ccccc1)NC(=O)[C@H](Cc1c[nH]cn1)NC(=O)[C@H](CCC(=O)O)NC(=O)[C@H](CS)NC(=O)[C@H](CS)NC(=O)COCCOCCNC(=O)[C@@H]1CC(=O)N[C@@H](CCCNC(=N)N)C(=O)NCC(=O)N[C@@H](CC(=O)O)C(=O)N[C@H](Cc2ccc(O)cc2)C(=O)N1)C(N)=O [technetium-99m labelled]", "system": "nude mouse, M21 melanoma xenograft, pancreas", "setting": "intravenous, 2 h", "tissue uptake": "0.09 ± 0.04 %ID/g"}
